Measured values pooled from the literature.
A part holds a random share of what one study measured. Positions count from the first letter of the parent shown.

Study 1
Target: Histone acetyltransferase KAT6A, winged helix 2, GST fusion (KAT6A, Homo sapiens, UniProt Q92794, residues 85-181)
Technique: protein binding microarray
Form: double-stranded DNA, one strand shown
Medium: in vitro
Concentration: not given
Setting: 8-mer, flanks averaged, mean of 2 arrays, mostly near background
Relative to: not given
Reading: higher = stronger binding
Construct (chain): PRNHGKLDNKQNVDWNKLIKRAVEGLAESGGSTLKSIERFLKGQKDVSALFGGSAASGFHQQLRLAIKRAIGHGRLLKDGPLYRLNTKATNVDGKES
`AAATCTTA` has an E-score of -0.00189.
For `GCCACAGA`, the E-score was -0.032.
The E-score of `CGGGAAAA` is reported as 0.151.
With `AGTGGTTC` the E-score was -0.14.
`ACCATAGG` has an E-score of -0.115.
The E-score of `AATAGGGG` is reported as -0.125.
For `CCGATTTC`, the E-score was -0.0586.
For `CCGTGCGA`, the E-score was 0.208.
For `ATTGATTC`, the E-score was 0.136.
The E-score of `ATCTCTAA` is reported as -0.0219.
`CAGCAACA` gave an E-score of 0.18.
The E-score of `GCCGACAC` is reported as -0.0965.
`GAGTCAGC` has an E-score of -0.0133.
The E-score of `CAATCAAC` is reported as 0.0036.
The E-score of `ACCGGAAG` is reported as 0.107.
The E-score of `AATACACG` is reported as -0.178.
The E-score of `ATGATACA` is reported as -0.0533.
`AGCATGCA` gave an E-score of -0.143.
For `ATGCTGAA`, the E-score was 0.0316.
The E-score of `GCCCCCTA` is reported as -0.00817.

Study 2
Target: CREB3L4, bZIP domain (human)
Technique: DHFR protein complementation
Medium: yeast
Setting: single substitutions, most at no-binding floor
Relative to: wild-type JUN-FOS pair
Reading: higher = stronger binding
Starting sequence: JUN, bZIP domain (human); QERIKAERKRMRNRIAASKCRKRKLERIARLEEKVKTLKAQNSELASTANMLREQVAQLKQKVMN; partner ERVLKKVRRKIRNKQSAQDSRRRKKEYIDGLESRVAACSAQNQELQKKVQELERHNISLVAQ
The binding fitness of `E33D` is reported as -1.53 natural log.
With `K39G` the binding fitness was -1.48 natural log.
For `S47T`, the binding fitness was -1.51 natural log.
For `S47H`, the binding fitness was -1.49 natural log.
The binding fitness of `E54N` is reported as -1.43 natural log.
With `K34V` the binding fitness was -1.25 natural log.
`K39M` gave a binding fitness of -1.09 natural log.
With `S47N` the binding fitness was -1.27 natural log.
For `R30E`, the binding fitness was -1.18 natural log.
`E32G` has a binding fitness of -1.4 natural log.
The binding fitness of `V35M` is reported as -1.12 natural log.
With `T37H` the binding fitness was -1.2 natural log.
With `A46M` the binding fitness was -1.49 natural log.
`V35W` gave a binding fitness of -1.34 natural log.
`A40I` gave a binding fitness of -1.48 natural log.
For `M51L`, the binding fitness was -1.38 natural log.
For `K34L`, the binding fitness was -1.55 natural log.
With `L45Y` the binding fitness was -1.14 natural log.
`L31A` gave a binding fitness of -1.51 natural log.
`V56C` has a binding fitness of -1.41 natural log.
For `V56Y`, the binding fitness was -1.42 natural log.
`K39I` has a binding fitness of -1.6 natural log.
With `I28L` the binding fitness was -1.26 natural log.

Study 3
Target: Interferon regulatory factor 7, full length, phosphomimetic (IRF7, Homo sapiens, UniProt Q92985, residues 1-503, S471D/S472D/S475D/S476D/S477D/S483D/S484D/S487D)
Technique: protein-binding microarray
Form: double-stranded DNA, one strand shown
Medium: in vitro
Concentration: 2200 nM top
Setting: 60-bp whole probe
Added: salmon DNA 0.4 mg/ml
Relative to: random background probes
Reading: higher = stronger binding
All sequences stand within: GCCTAGCAC … GTCTTGATTCGCTTGACGCTGCTG
Construct (chain): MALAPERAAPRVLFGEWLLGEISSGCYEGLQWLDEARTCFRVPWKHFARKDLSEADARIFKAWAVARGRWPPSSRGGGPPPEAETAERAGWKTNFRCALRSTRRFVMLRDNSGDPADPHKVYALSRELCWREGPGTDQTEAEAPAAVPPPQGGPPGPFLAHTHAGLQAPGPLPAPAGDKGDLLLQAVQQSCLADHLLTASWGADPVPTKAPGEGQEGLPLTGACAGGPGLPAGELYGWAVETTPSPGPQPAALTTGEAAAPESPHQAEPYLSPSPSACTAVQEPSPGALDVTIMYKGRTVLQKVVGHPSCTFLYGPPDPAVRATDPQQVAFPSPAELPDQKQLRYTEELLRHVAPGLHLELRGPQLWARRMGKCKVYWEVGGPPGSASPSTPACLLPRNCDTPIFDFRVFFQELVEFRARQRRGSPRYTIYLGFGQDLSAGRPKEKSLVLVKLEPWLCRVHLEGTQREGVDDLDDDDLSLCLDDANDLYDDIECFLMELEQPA
For `TTCGAACTGGGGACTGGATTAGTGCTA`, “fitted relative affinity” read -0.0664 z-score.
For `TTTGGACTGGGTATCGGTTAGTGCTAG`, “fitted relative affinity” read 0.235 z-score.
`TTAGGACCGGGGTTTCGGTTAGTGCTA`: “fitted relative affinity” 2.48 z-score.
`GTCGGTTTCCTACTGCTGACGTGCTAG` — result for “fitted relative affinity”: 2.86 z-score.
Under “fitted relative affinity”, `TCAGGTTTCGGTTTCGGTTAGTGCTAG` is recorded as 16.6 z-score.
`GACGATTTCAGGTATCGAGACGTGCTA`: “fitted relative affinity” 0.999 z-score.
Under “fitted relative affinity”, `GACGATCTCGGGTATCGAGACGTGCTA` is recorded as -0.0726 z-score.
`CTAGGACTGCTTTTCCTTTAGTGCTAG`: “fitted relative affinity” 1.44 z-score.
Under “fitted relative affinity”, `GACGATCTCAGACTGGAGCCGTGCTAG` is recorded as -0.119 z-score.
For `ACATATTTGTTTCCATTTTCGTGCTAG`, “fitted relative affinity” read 4.65 z-score.
`GACGAACTGAGAGTGGAGACGTGCTAG`: “fitted relative affinity” -0.364 z-score.
`TCATAGATGCCTTTCTCACTGTGCTAG`: “fitted relative affinity” 0.813 z-score.
For `TTTGGTTTCGGTTTCGGTTAGTGCTAG`, “fitted relative affinity” read 18.4 z-score.
`TTAGGATTGCTACTGCTTTAGTGCTAG`: “fitted relative affinity” 0.0597 z-score.
`TTAGGTTTCGACTATCGGGTAGTGCTA` — result for “fitted relative affinity”: 3.31 z-score.
Under “fitted relative affinity”, `TTAGGTTTGGGTTCCGGTTAGTGCTAG` is recorded as 1.57 z-score.
For `GACGAACTTGGGACTGGAGACGTGCTA`, “fitted relative affinity” read -0.382 z-score.
`ATGCTACTGCATTTTTTTTTGTGCTAG` — result for “fitted relative affinity”: 0.489 z-score.
`TTAGGTAGCCTTCTCCTTTAGTGCTAG`: “fitted relative affinity” 0.35 z-score.
`TTTTTTTTTACTTCGGGTGAGTGCTAG` — result for “fitted relative affinity”: 2.26 z-score.
Under “fitted relative affinity”, `GACGGACTGCTACTGCTGTCGTGCTAG` is recorded as 0.0621 z-score.
`GCCATTGTGGGTCTTGCAGAGTGCTAG`: “fitted relative affinity” -0.27 z-score.
`GTGGGGGGTGTGAGTGGGTGGTGCTAG`: “fitted relative affinity” 1.85 z-score.
For `TAAAATTTTGCTTCTAGAACGTGCTAG`, “fitted relative affinity” read 0.114 z-score.
Under “fitted relative affinity”, `TTAGATTTCAGTATCGATTCGTGCTAG` is recorded as 1.95 z-score.

Study 4
Target: RNA binding protein fox-1 homolog 2, RRM domain, GST-SBP tag (RBFOX2, Homo sapiens, UniProt O43251-10, residues 100-194)
Technique: RNA Bind-n-Seq
Form: RNA
Medium: in vitro
Concentration: 365 nM
Setting: natural RNA segment, single round, ends assumed
Relative to: no-protein control
Reading: higher = stronger binding
Target sequence (chain): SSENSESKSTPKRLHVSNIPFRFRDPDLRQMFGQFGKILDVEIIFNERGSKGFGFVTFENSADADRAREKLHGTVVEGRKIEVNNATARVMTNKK
`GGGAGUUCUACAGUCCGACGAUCUAUUUGUUGGCAUGCUUACAACACAUGUCCAUUAAAGUUCAUUUGGUCCUUUUAUUUUCAUUGUUUUCUUGGUUAGUGAUUUCAUUUGCAUAAACAUUAAUUAUCUCUGCUGGAAUUCUCGGGUGCCAA` — result for “RBNS enrichment (R)”: 0.608.
Under “RBNS enrichment (R)”, `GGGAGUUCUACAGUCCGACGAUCCACCUUAGUUACUUCAUUUGGCUCCGUUGGCUUGUGUUUCUAGGUGAGGAGUUUCCUACCAGUUCACUCCAGUGCCAUUGUCUUUAUAUGAACGUAGUGUAGAGAAGCUGUGGAAUUCUCGGGUGCCAA` is recorded as 0.404.
Under “RBNS enrichment (R)”, `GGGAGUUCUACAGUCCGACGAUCAUACAAUAUGCUGGACAUGUGACUCAUGGCUAGAGAAUGUGUCUAGCAUGAUCGGGGACUAAGUUCUCACCCCAGCACUAAAUAAAUAAAACCAAGUCAACAGCCAUCAAUGGAAUUCUCGGGUGCCAA` is recorded as 0.494.
`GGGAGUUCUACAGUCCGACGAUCCGGAGUUUUGCUCUUGUUGCCCAGGCUGGAGUGCAGUGACACAAUCUCUACUCACUGCAACCUCCACCUCCCGGGUUCAAGCAAUUCUCCUGCCUCAGCCUCCUGAGUAGUGGAAUUCUCGGGUGCCAA`: “RBNS enrichment (R)” 0.263.
For `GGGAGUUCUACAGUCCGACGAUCUUGUUGGUUGUUGUUGCAGAAGACUGAACUGUUUUGGAAUAUUUAACAAUUACAGAAACAGUCAAGUGUUUUCCAAUGUGGUUGUCCGGUUUCUAUGGCCUUGCUGUGUAUGGAAUUCUCGGGUGCCAA`, “RBNS enrichment (R)” read 0.361.
For `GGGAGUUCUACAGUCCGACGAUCCUAUCCGACUUGCCUAUCCUCAAAGAUAAGAAGUUGGUGUUCAGCUUAGUUGAUUCAGUAGUUGUUACCAAGAAACAUAUGUUAUAGGAAAACAACUUGGUAUUUAAGUAUGGAAUUCUCGGGUGCCAA`, “RBNS enrichment (R)” read 0.279.
Under “RBNS enrichment (R)”, `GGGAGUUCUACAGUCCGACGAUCUUUUUACAUCUUUUAUGCACCAAAUUAUAAUGGUCACAUAUGUUUAGCCCGUUGCCACUGUUCGGGAUUCGAUUUGAAACUCAUCACUAGUAUAGAAGUGGCAUAUCCCAUGGAAUUCUCGGGUGCCAA` is recorded as 0.421.
`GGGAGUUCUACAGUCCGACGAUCAUCAGGCGCAGAAAUGAGGAUUACUGUUUCUUCCAGAUUUUGUUAAGAAUGUGUUCAGAUAUUUGUGUUUUCUUUCCUCAAUUUCUUACCAUGUAAUGUAACAUCAAUUAUGGAAUUCUCGGGUGCCAA` — result for “RBNS enrichment (R)”: 0.519.
For `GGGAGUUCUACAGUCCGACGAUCCUGUGGGGGCCUGCCCACUCCAUGGCAGUGCCCUGAAGGAGUCAGACUACCAUGGCAUCGCAGGCCCAGAGGGCAGACAUUUUUUCUAGUUUUUAAUUGGGGUGUGGGAGUGGAAUUCUCGGGUGCCAA`, “RBNS enrichment (R)” read 0.337.
`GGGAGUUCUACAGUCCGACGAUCCAGUGUCACUAGAAUUUUGAAGACAGGAAAGUGGAGGUUAGUCUGUGGCCUUUUUUUCAUUUAGCCAUUGCACAGUCAGCUGCAGAAGUCCUGCUGACCACCUAGUCAUGUGGAAUUCUCGGGUGCCAA`: “RBNS enrichment (R)” 0.502.
`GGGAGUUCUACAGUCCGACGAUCUAAUCCAAACUCUAUGAAAGCAAUUUUAAAAAUUAUUAAGGUUUUAUGAAGUUGACAAAAUCUAACUAUAUUUGGUGCAUCACAAUGGACACAGAAUGCUGCUGCUCCUCUGGAAUUCUCGGGUGCCAA`: “RBNS enrichment (R)” 0.4.
Under “RBNS enrichment (R)”, `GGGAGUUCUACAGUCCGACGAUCUUUUGUGCUAUUGUUUUAAAAAAUAAUAAUUAAAAAACAGUUGGCGUUAAUAAAAAUGUCAAUGUGAUUUGUUGGCCUGGUUCUUUCAGCUUUCUUGAAAGGAAACUAAAUGGAAUUCUCGGGUGCCAA` is recorded as 0.317.

Repeated from above (study 3):
`GTCGGTTTCCTACTGCTGACGTGCTAG` — result for “fitted relative affinity”: 2.86 z-score.
Under “fitted relative affinity”, `TTAGGTTTGGGTTCCGGTTAGTGCTAG` is recorded as 1.57 z-score.
`ATGCTACTGCATTTTTTTTTGTGCTAG` — result for “fitted relative affinity”: 0.489 z-score.
`TTAGGTTTCGACTATCGGGTAGTGCTA` — result for “fitted relative affinity”: 3.31 z-score.
